Measured values pooled from the literature.
Each line is one published result; not all experiments were run side by side. Values joined by “and” are separate records of one study, mostly repeats; a detail may differ.
Oprk1: Kappa-type opioid receptor (Oprk1, Mus musculus, UniProt P33534)
SIGMAR1: Sigma non-opioid intracellular receptor 1 (SIGMAR1, Cavia porcellus, UniProt Q60492)

The chains behind the UniProt entries cited, without tags or fusion partners. Residues count along the entry.
UniProt Q60492, whole entry: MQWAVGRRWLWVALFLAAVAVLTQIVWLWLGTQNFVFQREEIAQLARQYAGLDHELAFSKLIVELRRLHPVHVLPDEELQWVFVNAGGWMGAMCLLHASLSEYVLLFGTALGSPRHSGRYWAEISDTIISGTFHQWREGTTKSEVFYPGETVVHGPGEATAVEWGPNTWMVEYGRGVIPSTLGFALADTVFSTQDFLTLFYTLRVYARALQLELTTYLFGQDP
UniProt P21728, whole entry: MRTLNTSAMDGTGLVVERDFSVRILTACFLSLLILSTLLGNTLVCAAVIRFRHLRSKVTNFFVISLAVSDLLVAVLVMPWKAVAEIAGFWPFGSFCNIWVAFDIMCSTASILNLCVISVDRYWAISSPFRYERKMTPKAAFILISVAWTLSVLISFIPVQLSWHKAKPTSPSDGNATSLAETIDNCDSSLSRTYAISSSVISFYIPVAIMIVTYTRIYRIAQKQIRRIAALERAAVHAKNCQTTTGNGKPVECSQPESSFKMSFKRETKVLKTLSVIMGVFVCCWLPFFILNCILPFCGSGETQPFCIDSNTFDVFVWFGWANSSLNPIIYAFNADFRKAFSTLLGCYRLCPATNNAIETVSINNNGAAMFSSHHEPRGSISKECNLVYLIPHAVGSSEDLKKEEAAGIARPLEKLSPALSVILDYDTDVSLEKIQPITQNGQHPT
UniProt Q9Y251, whole entry, looked up: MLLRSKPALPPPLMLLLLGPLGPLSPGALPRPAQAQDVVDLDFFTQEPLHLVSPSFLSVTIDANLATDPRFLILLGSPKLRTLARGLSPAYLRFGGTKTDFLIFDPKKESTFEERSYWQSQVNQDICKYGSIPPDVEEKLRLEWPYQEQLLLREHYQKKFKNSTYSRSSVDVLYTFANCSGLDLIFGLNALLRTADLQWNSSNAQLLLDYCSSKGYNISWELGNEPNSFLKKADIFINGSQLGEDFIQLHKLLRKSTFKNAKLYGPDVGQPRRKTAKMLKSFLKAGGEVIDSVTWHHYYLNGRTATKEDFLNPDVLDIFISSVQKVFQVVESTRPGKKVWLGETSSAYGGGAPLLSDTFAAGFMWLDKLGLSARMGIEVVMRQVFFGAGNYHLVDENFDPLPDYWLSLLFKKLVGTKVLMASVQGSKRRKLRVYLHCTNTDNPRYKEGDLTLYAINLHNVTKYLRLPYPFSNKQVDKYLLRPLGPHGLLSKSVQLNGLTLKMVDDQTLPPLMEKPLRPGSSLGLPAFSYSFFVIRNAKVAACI
UniProt Q6ZMT4, 92-488 limits assumed: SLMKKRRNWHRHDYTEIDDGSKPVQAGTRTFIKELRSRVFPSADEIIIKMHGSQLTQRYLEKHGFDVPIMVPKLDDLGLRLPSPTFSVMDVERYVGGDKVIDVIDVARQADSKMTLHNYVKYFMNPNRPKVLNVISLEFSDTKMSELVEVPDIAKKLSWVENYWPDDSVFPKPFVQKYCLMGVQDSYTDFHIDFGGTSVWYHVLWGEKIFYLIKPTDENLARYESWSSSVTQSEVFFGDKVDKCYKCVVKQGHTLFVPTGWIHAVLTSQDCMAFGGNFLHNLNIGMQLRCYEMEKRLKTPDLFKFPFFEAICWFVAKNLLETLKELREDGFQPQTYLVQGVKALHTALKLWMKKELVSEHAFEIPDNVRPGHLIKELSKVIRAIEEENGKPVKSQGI
UniProt Q14500, whole entry: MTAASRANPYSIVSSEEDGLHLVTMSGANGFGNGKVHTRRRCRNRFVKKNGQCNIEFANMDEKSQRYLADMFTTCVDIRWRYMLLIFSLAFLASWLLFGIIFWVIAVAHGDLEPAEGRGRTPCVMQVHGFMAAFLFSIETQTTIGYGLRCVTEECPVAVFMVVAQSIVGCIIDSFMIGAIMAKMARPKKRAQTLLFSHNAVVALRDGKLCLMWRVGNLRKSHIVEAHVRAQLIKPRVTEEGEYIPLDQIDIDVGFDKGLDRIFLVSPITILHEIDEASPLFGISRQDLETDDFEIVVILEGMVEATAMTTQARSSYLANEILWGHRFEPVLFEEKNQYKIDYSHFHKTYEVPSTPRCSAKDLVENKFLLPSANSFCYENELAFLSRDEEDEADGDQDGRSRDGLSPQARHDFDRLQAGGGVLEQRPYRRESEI
UniProt P08246, whole entry, looked up: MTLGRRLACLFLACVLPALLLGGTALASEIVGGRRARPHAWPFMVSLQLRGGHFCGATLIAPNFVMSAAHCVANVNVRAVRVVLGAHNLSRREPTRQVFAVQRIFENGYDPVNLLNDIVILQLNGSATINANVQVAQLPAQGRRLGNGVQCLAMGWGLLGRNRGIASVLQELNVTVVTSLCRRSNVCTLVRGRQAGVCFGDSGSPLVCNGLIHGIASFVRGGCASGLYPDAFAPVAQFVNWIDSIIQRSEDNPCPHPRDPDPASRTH
UniProt P21554, whole entry: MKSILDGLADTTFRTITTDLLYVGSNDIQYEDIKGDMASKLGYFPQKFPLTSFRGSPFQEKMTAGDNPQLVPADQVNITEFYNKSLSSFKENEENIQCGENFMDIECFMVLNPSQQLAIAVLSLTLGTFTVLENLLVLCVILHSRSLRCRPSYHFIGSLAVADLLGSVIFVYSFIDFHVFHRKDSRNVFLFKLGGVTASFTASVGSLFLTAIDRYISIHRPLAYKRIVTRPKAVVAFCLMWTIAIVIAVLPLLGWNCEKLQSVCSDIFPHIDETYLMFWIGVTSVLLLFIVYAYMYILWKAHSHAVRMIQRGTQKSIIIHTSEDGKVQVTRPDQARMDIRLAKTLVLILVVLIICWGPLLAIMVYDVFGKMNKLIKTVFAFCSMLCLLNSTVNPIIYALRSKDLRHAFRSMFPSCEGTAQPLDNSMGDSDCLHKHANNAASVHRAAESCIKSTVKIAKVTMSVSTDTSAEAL

[11CH3]Nc1ccc(C(=O)C2CCN(C3Cc4ccccc4CC3O)CC2)cc1 (single isomer, unassigned)
radioactivity uptake (Sprague-Dawley rat, brain; intravenous, dose not given, 5 min): 0.57 %ID/g

NC[C@@H](NC[C@@H]1CCCN1C[C@@H](CO)NC[C@@H](NCCc1ccc(-c2ccccc2)cc1)c1ccccc1)c1ccccc1
IC90 (Acinetobacter baumannii; bacterial growth; compound alone): 15.1 µM

COc1ccc(CN[C@@H]2CO[C@H](C(c3ccccc3)c3ccccc3)C[C@H]2O)cc1
inhibition (DRD1 (Homo sapiens, UniProt P21728); radioligand binding; 10 µM, together with: [3H]SCH23390): 2.5%

CC(C)C[C@@H](NC(=O)[C@H](NC(=O)[C@H]1CCCN1)[C@H](C)O)C(=O)N[C@H](Cc1c[nH]cn1)C(=O)N[C@@H](C(=O)N[C@H](Cc1c[nH]cn1)C(=O)N[C@H](CC(N)=O)C(=O)N[C@H](CCCNC(=N)N)C(=O)N[C@H](CCCNC(=N)N)C(=O)N[C@H](CCCNC(=N)N)C(=O)N[C@H](CCCNC(=N)N)C(=O)N[C@H](CCCNC(=N)N)C(N)=O)[C@H](C)O
AUC(0-24h) (healthy human, plasma; oral, 2 320 mg daily, day 1, mean): 76.2 ng·h/mL

O=C(N[C@@H]1CC[C@@]2(O)[C@H]3Cc4ccc(O)c5c4[C@@]2(CCN3CC2CC2)[C@H]1O5)c1ccnc(Br)c1
selectivity ratio (Oprk1; radioligand binding; CHO; together with: [3H]diprenorphine; relative to: Ki δ over Ki κ): 965

O=C([C@H]1O[C@H](O[C@H]2[C@H](O[C@@H]3O[C@H](C(=O)N4CCN(c5ncccn5)CC4)[C@@H](O[C@H]4O[C@@H](CNS(=O)(=O)O)[C@@H](OCc5ccc6ccccc6c5)[C@H](OCc5ccc6ccccc6c5)[C@H]4NS(=O)(=O)O)[C@H]3OCc3ccc4ccccc4c3)[C@@H](OCc3ccc4ccccc4c3)[C@H](NS(=O)(=O)O)C[C@@H]2NS(=O)(=O)O)[C@H](NS(=O)(=O)O)[C@@H](OCc2ccc3ccccc3c2)[C@@H]1OCc1ccc2ccccc2c1)N1CCN(c2ncccn2)CC1
selectivity ratio (Heparanase (HPSE, Homo sapiens, UniProt Q9Y251); TR-FRET; relative to: PF4 IC50 over heparanase IC50): > 100 fold

Cc1cc(C(=O)N[C@@H]2CC[C@@]3(O)[C@H]4Cc5ccc(O)c6c5[C@@]3(CCN4CC3CC3)[C@H]2O6)ccn1
selectivity ratio (Oprk1; radioligand binding; CHO; together with: [3H]diprenorphine; relative to: Ki δ over Ki κ): 155

CC(CCN[C@H](CN[C@H](CO)CN1CCC[C@H]1CN[C@H](CN)c1ccccc1)c1ccccc1)c1ccccc1 (some centres unmarked)
IC50 (Escherichia coli; bacterial growth; compound alone): > 24 µM

COc1cc2c(N(C)C)nc(NCCCN(C)C)nc2cc1OCCCCCN
selectivity ratio (Lysine-specific demethylase 7A, Jumonji domain (KDM7A, Homo sapiens, UniProt Q6ZMT4); enzyme activity; relative to: apparent Ki KDM7A over EHMT1): 35

CC1CCN(Cc2cc(Cl)c3cccnc3c2O)CC1
selectivity ratio (KCNJ12 (Homo sapiens, UniProt Q14500); inhibitor, thallium flux; relative to: Kir7.1 over KCNJ12): > 7 fold

COc1ccc(Sc2cc(C(=O)N3Cc4ccccc4C3)ccc2O)cc1OC
selectivity ratio (HSP90AA1 (Homo sapiens, UniProt P07900); fluorescence polarization; together with: FITC-geldanamycin; relative to: IC50 Hsp90beta over Hsp90alpha): ~22 fold

[N-]=[N+]=CC(=O)[C@H](Cc1cccc([N+](=O)[O-])c1)NC(=O)OCc1ccccc1
selectivity ratio (Neutrophil elastase (ELANE, Homo sapiens, UniProt P08246); highest concentration 40 µM; relative to: elastase IC50 over streptopain IC50): > 21 fold

COc1cc(C(=O)N[C@@H]2CC[C@@]3(O)[C@H]4Cc5ccc(O)c6c5[C@@]3(CCN4CC3CC3)[C@H]2O6)ccn1
selectivity ratio (Oprk1; radioligand binding; CHO; together with: [3H]diprenorphine; relative to: Ki δ over Ki κ): 349

O=C(c1ccc(Br)cc1)C1CCN([C@@H]2Cc3ccccc3C[C@H]2O)CC1 (relative stereo)
selectivity ratio (SIGMAR1; binding; relative to: Ki sigma-1 over Ki VAChT): 1190

O=C(NC1CCN(c2ncnc3c2nc(-c2ccccc2Cl)n3-c2ccc(Cl)cc2)CC1)C1CCCCC1
selectivity ratio (CNR1 (Homo sapiens, UniProt P21554); binding, radioligand displacement; CHO cell membranes; together with: [3H]CP55940; relative to: Ki CB2 over Ki CB1): 250

O=C(c1ccccc1)C1CCN([C@@H]2Cc3ccccc3C[C@H]2O)CC1 (relative stereo)
selectivity ratio (SIGMAR1; binding; relative to: Ki sigma-1 over Ki VAChT): 51.1

N#Cc1cc(C(=O)N[C@@H]2CC[C@@]3(O)[C@H]4Cc5ccc(O)c6c5[C@@]3(CCN4CC3CC3)[C@H]2O6)ccn1
selectivity ratio (Oprk1; radioligand binding; CHO cell membranes; together with: [3H]diprenorphine; relative to: Ki mu receptor over Ki kappa receptor): 9.62 and 9.6
